# Published values from different studies.
# Each numbered part is a random draw from the data of one study; scales do not carry over between parts.

# Series 1 — technique: RNA Bind-n-Seq; molecule type: RNA; medium: in vitro; tested at: 365 nM; reference: no-protein control; reading: higher = stronger binding
# Target: RNA binding protein fox-1 homolog 2, RRM domain, GST-SBP tag (RBFOX2, Homo sapiens, UniProt O43251-10, residues 100-194)
# Setting: natural RNA segment, single round, ends assumed
# Residues (chain): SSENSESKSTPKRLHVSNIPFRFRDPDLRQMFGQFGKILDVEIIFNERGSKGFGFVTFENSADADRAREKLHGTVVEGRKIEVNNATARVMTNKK
Strand,RBNS enrichment (R)
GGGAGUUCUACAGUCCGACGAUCUAUGGCUGCCAUUCUCUUCAGCCCUCGCUCUCCCCUUUCCACAGCCUCCACCCCUGACCCCCAUCCUCUUUUCCUACCUCUCUGUUUGGUUUAGAAAUUGCUCAAUAAGUUGGAAUUCUCGGGUGCCAA,0.565
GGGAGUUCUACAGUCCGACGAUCACUUGCCUCAUUUCCCUAUCUUCUCCCCCACGGUAUCCUAAACUUUAGACUUCCCACUGUUCUGAAAGGAGACAUUGCUCUAUGUCUGCCUUCGACCACAGCAAGCCAUCUGGAAUUCUCGGGUGCCAA,0.695
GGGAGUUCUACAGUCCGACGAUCUAGCUAUGGGUUUGGAACACUGGACUUGACUAUGGGGUGCUGGGAGUCAAGUCUCAGCUUUACCACUAACUAGCUGUGUGGCCUUGAGCAAAUACUAUUACUUCUCUGAGUGGAAUUCUCGGGUGCCAA,0.277
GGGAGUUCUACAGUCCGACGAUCUCCCUCUCAGCAGGAGGGGUAAUGGUAGAUACAGCCUCCAUACAUCUCUUUCUCCCCUUGUUUACCCUCCAUUCCCACUCUGAUUUAGACUUCUUGAUUGUCGAUCUCUGUGGAAUUCUCGGGUGCCAA,0.426
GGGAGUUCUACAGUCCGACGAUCAUGCCAUACGGCCCUUUAUUGCCAUCCUAUACUUGUAAAUACGAUCCUGCUCUCAAGUGAAAUGAGUUAUAUGAGAUAUAUAUAUAUAUAUUUGGUCUUAACUGGAUUUUUGGAAUUCUCGGGUGCCAA,0.493
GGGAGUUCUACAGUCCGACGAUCAUAUUUUAUAAACCACUAGUGCCUUUGGGUUUCUUUGCCAAAAACUUAAGCCAGCCUCUAUCACCAAAAAAAAAGUCUCACCUCUAAUAAAUACACAUUUGCCAGGAAAAUGGAAUUCUCGGGUGCCAA,0.691
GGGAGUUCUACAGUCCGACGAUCUGUUCAUUUUACUGAUGCACUUUAGUUUUUGGUCUGUUACCUGUUUUCCAGAAAUUUGUGGCCUUUUAGGCGGGAGUUAGGCGACCAAACCAGUGAGAGCCCCAAUCCCUUGGAAUUCUCGGGUGCCAA,0.442
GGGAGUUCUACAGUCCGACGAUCCCUGGCACAGCAGCCUUCUACUCAUCCACUGCAUGACCCGGAGGCUAGGAGAGCCUGGGCUUCCUCCUUGCGGUGGGGCCAGCCUGCAAAGGGCCACUGACCUGGCAAGCUGGAAUUCUCGGGUGCCAA,2.72

# Series 2 — technique: RNAcompete; molecule type: RNA; medium: in vitro; tested at: 20 nM; setting: 7-mer, probes averaged, single round; reference: mean of 7-mers; reading: higher = stronger binding
# Target: PABPC1L2, full length, GST fusion (mouse, UniProt A0ABA7IW68)
Strand,7-mer Z-score
AUAUGAG,0.102
GCUGUCG,-0.32
UUUGAAA,0.095
UCCGAUG,-0.219
AAUUCCG,0.0315
UGGUAAG,-0.153
CCAAGAC,-0.0844
UAGGAAU,-0.0718
AGUGAAC,-0.15
AGCCUGC,-0.155
UCAGACG,-0.133
CCAAUCA,-0.0464
AAUCCAA,0.274
AAUGCCC,0.000733
CAGAUAU,-0.115
UGCCUAA,-0.179

# Series 3 — technique: RNA Bind-n-Seq; molecule type: RNA; medium: in vitro; tested at: 100 nM; reference: input RNA pool; reading: higher = stronger binding
# Target: RING finger protein unkempt homolog, zinc fingers 1-6, SBP tag (UNK, Homo sapiens, UniProt Q9C0B0, residues 30-357)
# UniProt Q9C0B0, sequence (30-357, looked up): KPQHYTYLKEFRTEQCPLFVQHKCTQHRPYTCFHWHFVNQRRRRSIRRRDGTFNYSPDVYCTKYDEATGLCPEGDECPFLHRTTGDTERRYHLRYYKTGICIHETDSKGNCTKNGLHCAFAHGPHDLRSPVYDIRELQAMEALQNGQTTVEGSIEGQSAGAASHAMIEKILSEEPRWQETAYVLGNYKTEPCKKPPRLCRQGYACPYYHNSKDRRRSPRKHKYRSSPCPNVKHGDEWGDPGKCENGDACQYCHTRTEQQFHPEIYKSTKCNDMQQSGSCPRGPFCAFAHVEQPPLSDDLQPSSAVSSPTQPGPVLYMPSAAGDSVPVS
# Setting: RNA with constant flanks, vertebrate orthologous sites, ends assumed
Strand,bound/input enrichment [ratio]
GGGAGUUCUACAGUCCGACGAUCUGAGGUGUACUUGUGGGGCACUGCUGGCUGCUUAGCGUCGUUAAAUUUGUGACCUUGACAUCAUAGAUAGGCUUGUGGUGUUUUUUUAAUUUAAAGAUAUUAAGACUUAAUUCACUAAAACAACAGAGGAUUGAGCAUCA,0.605
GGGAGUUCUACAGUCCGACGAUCGCCAUGAAAGAGCAGCCCUUCUCCCAGCCCCCCUUUCACUAGGAGAUACAAACGUUACUAUAGAAGAGCAAUUAAACUCAAUAAAUUUAUCUUUUCAGGAUGAUCCAGACUCCAGUACCACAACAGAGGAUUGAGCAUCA,1.1
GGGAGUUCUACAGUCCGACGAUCCGUGCUUAUGCUCUUCUAUGAGAGAGAUGAAUUGGGGAGAACUGUCUCCAUUUUAUAGAUUAGUUUCUUUCUAAAUUAUGACCAAAAAUAUUUUGCUAUUUCUUUCUUUGUAUAUGGACACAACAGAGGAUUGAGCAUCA,0.509
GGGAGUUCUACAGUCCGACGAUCGGCCUCCAGAAGGUGGAGCAUUGCAGUGGUGGCUGUUUUAGAGAUGGAUUUUCUUUUCCUUAGAGGUUUUCCCCAUAUCCUGCCUCUUCUUCCCCUUCCCAAGGUUUGACUUCUGGAUGCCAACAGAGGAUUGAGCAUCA,0.44
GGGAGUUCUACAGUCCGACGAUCGCAAUGCCUUCCCGAGCUUGUUCCAGCCAGCACUCGUACUGGGGUCUUCUGACUCUGAAUCUAUAGAAGCCUUUGAUUAUAACUAUUACAUGUGAAAAGAUGAGGAUAAAAUACAACAGACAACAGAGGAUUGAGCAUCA,0.494
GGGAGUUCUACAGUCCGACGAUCCGUCAUACCAGCAUAUUAACUAGUUAGUCAUACAUGCACAGCUUAAAGAAAGUAACAGUCUAGUUAUUUUUUUAAUUGUUUUAAAAACAAGUUUCCCAGCUACGUACAAAAAAAAAAAAACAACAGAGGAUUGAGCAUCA,1.22
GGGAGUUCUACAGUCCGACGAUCGAAGCUCAGCACUUAACAACUGACACCCCAAAAGACGUAGAAAAGGUUUACAAAAUAAUCUAGUUUACGAAGAAAUCUUGUGCUAGAAUACUUUUUAAAGUAUUUUUGAAUACCAUUAAACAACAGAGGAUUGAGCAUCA,0.248
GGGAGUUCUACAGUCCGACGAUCCUUCAACUGGUAUUUUCAAAGGACCACAGGAAACUUUCUUUUUUCUUUUUUUUACAGUUUAGUCCUGUCUGGUUUCUACAUGGAAGACUGAAACUUUCAUGCUUAUUGUUAAAUGUGUUUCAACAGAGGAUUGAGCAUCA,0.58

# Series 4 — technique: protein binding microarray; molecule type: double-stranded DNA, one strand shown; medium: in vitro; tested at: not given; reference: not given; reading: higher = stronger binding
# Target: Histone acetyltransferase KAT6A, winged helix 2, GST fusion (KAT6A, Homo sapiens, UniProt Q92794, residues 85-181)
# Setting: 8-mer, flanks averaged, mean of 2 arrays, mostly near background
# Construct (chain): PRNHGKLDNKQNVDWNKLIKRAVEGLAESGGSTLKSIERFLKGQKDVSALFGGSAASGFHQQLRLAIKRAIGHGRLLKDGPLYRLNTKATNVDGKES
Strand,E-score
CTGGCATA,0.0631
GACGATAA,-0.0296
CACGAGAC,0.0842
ATAAACTA,0.144
AACCTCAA,-0.104
GCAACACA,0.0602
CACTTCGC,0.0828
GCACAAGC,0.0646
GTTGGGAA,0.0712
CATGCAAC,-0.0225
GTCACATA,-0.0623
TACTTCAA,-0.0722
TGGCTAAA,0.0223
AAAGGTTC,0.0689
AGTGCAAA,0.0859
TGTAGACA,0.0398
CTTCGGAA,0.234
AAGAGAAG,0.124
CTGTTCTA,0.108
GCCGCTAC,0.0951
CTCTCTTA,-0.0715
AGCAACAA,0.205
AGCAAAGA,0.0661
